Published values from different studies.
± marks the error that the study gave.
Organism: Plasmodium falciparum

The EC50 of `O=S(=O)(c1ccc(-c2ccc3ncccc3c2)cc1)N1CCOCC1` is reported as > 20000 nM (parasite growth, SYBR Green; W2).
With `CCONC(=O)N1CCC[C@H](C(=O)NCc2nc(-c3ccccc3)cs2)C1` the EC50 was 51 ± 11 nM (SYBR Green growth; asexual blood-stage parasites, 3D7; 72 h).
`Cc1ccc(N(c2ccc(NC(=O)CN(C)c3ccccc3N3CCCC3=O)cc2)C(C)C)cc1` has an EC50 of 464 nM (female gamete formation; NF54 stage V gametocytes; 48 h).
`O=S(=O)(c1ccc(-c2ccc3nccc(Nc4cncs4)c3c2)cc1)N1CCOCC1` gave an EC50 of 7000 nM (parasite growth, SYBR Green; D6).
`Cn1cc(-c2cnc3[nH]cc(-c4cn(Cc5cccc(F)c5F)nn4)c3c2)cn1` has an EC50 of 468 nM (parasite growth, LDH colorimetric; 3D7 Hyp1-Nluc; 72 h).
With `C[C@H]1[C@@H](C(=O)NCc2nc(-c3ccc(C#N)cc3)cs2)CCCN1C(=O)[C@H]1CCO1` the EC50 was 14 ± 3.1 nM (SYBR Green growth; asexual blood-stage parasites, 3D7; 72 h).
For `O=S(=O)(c1ccc(-c2ccc3nccc(Nc4ccccc4)c3c2)cc1)N1CCOCC1`, the EC50 was 1500 nM (parasite growth, SYBR Green; W2).
`Cc1ccc(-c2csc(CNC(=O)[C@H]3CCCN(C(=O)COCC(F)F)C3)n2)cn1` gave an EC50 of 3.5 ± 1.1 nM (parasite growth, SYBR Green; 3D7, asexual blood stage; 72 h).
`Cc1cc(Nc2ccnc3ccc(-c4ccc(S(=O)(=O)N5CCOCC5)cc4)cc23)on1` gave an EC50 of 2700 nM (parasite growth, SYBR Green; TM91C235).
For `CCn1cc(C2CC2)c2c(Cc3cnc(C(F)(F)F)c(Cl)c3)n(C)nc2c1=O`, the EC50 was 31.6 nM (parasite growth; 3D7).
With `CN(C)CC(=O)N1CCC[C@H](C(=O)NCc2nc(-c3ccccc3)cs2)C1` the EC50 was > 5000 nM (SYBR Green growth; asexual blood-stage parasites, 3D7; 72 h).
For `CCn1cc(C)c2c(Cc3ccc(C(F)(F)F)nc3)n(C)nc2c1=O`, the EC50 was 39.8 nM (parasite growth; 3D7).
`CCOCC(=O)N1CCC[C@H](C(=O)NCc2nc(-c3ccc(C#N)nc3)cs2)C1` gave an EC50 of 13 ± 10 nM (SYBR Green growth; asexual blood-stage parasites, 3D7; 72 h).
For `O=S(=O)(c1ccc(-c2ccc3nccc(Nc4ncc(Cl)cn4)c3c2)cc1)N1CCOCC1`, the EC50 was 5500 nM (parasite growth, SYBR Green; W2).
`Cc1c(-c2n[nH]c3nc(C(F)(F)F)ccc23)c[nH]c1C(=O)NCC(F)(F)F` gave an EC50 of 350 nM (parasite growth; 3D7).
With `COCC(=O)N1CCC[C@H](C(=O)NCc2nc(-c3ccc(F)cc3)cs2)C1` the EC50 was 82 ± 13 nM (SYBR Green growth; asexual blood-stage parasites, 3D7; 72 h).
The EC50 of `Cn1nc2c(=O)n(C3CC3)ncc2c1[C@](O)(c1cnc(C(F)(F)F)c(Cl)c1)C1CC1` is reported as 15.8 nM (parasite growth; 3D7).
`COc1ccc(Nc2ccnc3ccc(-c4ccc(S(=O)(=O)N5CCOCC5)cc4)cc23)cc1Cl` gave an EC50 of 110 nM (parasite growth, SYBR Green; D6).
With `CCN1CCN(Cc2ccc(Nc3nc4cc(Oc5ccnc(NC(=O)C6CCN(C)CC6)c5)ccc4n3C)cc2C(F)(F)F)CC1` the EC50 was 400 ± 10 nM (parasite growth, SYBR Green I; Dd2; 72 h).
For `Cc1ccc(-c2csc(CNC(=O)[C@H]3CCCN(C(=O)[C@H]4CCC(C)(C)O4)[C@H]3C)n2)cn1`, the EC50 was 7 ± 1 nM (SYBR Green growth; asexual blood-stage parasites, 3D7; 72 h).
With `CCOC(=O)c1cn(CC)c2cc(N3CCC(Cc4ccccc4)CC3)c(F)cc2c1=O` the EC50 was 6 nM (parasite growth, [3H]hypoxanthine incorporation; RF12; 72 h).
With `CCc1nnc(Nc2ccnc3ccc(-c4ccc(S(=O)(=O)N5CCOCC5)cc4)cc23)s1` the EC50 was 890 nM (parasite growth, SYBR Green; D6).

For quick reference, copied from above:
With `CN(C)CC(=O)N1CCC[C@H](C(=O)NCc2nc(-c3ccccc3)cs2)C1` the EC50 was > 5000 nM (SYBR Green growth; asexual blood-stage parasites, 3D7; 72 h).
`Cc1ccc(-c2csc(CNC(=O)[C@H]3CCCN(C(=O)COCC(F)F)C3)n2)cn1` gave an EC50 of 3.5 ± 1.1 nM (parasite growth, SYBR Green; 3D7, asexual blood stage; 72 h).
